Measurements of several laboratories.
Numbers after ± are the reported error.

O=C([O-])c1cccc(CN(CCN(Cc2cn(Cc3ccccc3)nn2)Cc2cccc(C(=O)[O-])n2)Cc2cn(Cc3ccccc3)nn2)n1.[64Cu+2]
tissue uptake (healthy athymic nude mice, skin; intravenous, 1 h): 1.77 %ID/g

CCCC[C@H](NC(=O)CNC(=O)CNC(=O)CN1CCN(CC(=O)O)CCN(CC(=O)O)CCN(CC(=O)O)CC1)C(=O)N[C@H]1CC(=O)NCCCC[C@@H](C(N)=O)NC(=O)[C@H](Cc2c[nH]c3ccccc23)NC(=O)[C@H](CCCNC(=N)N)NC(=O)[C@@H](Cc2ccccc2)NC(=O)[C@H](Cc2c[nH]cn2)NC1=O [gallium-67 labelled]
tissue uptake (female C57 mice, B16/F1 melanoma, muscle; intravenous, 0.037 MBq, 4 h): 0.32 ± 0.07 %ID/g

CCCC[C@H](NC(=O)CN1CCC(NC(=O)CN2CCN(CC(=O)O)CCN(CC(=O)O)CCN(CC(=O)O)CC2)CC1)C(=O)N[C@H]1CC(=O)NCCCC[C@@H](C(N)=O)NC(=O)[C@H](Cc2c[nH]c3ccccc23)NC(=O)[C@H](CCCNC(=N)N)NC(=O)[C@@H](Cc2ccccc2)NC(=O)[C@H](Cc2c[nH]cn2)NC1=O [gallium-68 labelled]
tissue uptake (C57BL/6J mice male B16-F10 tumour, kidney; 2 h post injection, unblocked): 5.5 ± 0.4 %ID/g

N=C(N)NCCC[C@H](NC(=O)CON=C[C@H](F)[C@@H](O)[C@H](O)[C@H](O)CO)C(=O)NCC(=O)N[C@@H](CC(=O)O)C(=O)O [fluorine-18 labelled]
tissue uptake (nude mice U-87 MG tumour, liver; intravenous, 2 h): 0.22 ± 0.04 %ID/g

CC(C)[C@H](NC(=O)[C@@H]1CCCN1C(=O)[C@H](CCCNC(=N)N)NC(=O)[C@H](CS)NC(=O)[C@H](Cc1c[nH]c2ccccc12)NC(=O)[C@H](CCCNC(=N)N)NC(=O)[C@@H](Cc1ccccc1)NC(=O)[C@H](Cc1c[nH]cn1)NC(=O)[C@H](CCC(=O)O)NC(=O)[C@H](CS)NC(=O)[C@H](CS)NC(=O)[C@@H]1CC(=O)N[C@@H](CCCNC(=N)N)C(=O)NCC(=O)N[C@@H](CC(=O)O)C(=O)N[C@H](Cc2ccc(O)cc2)C(=O)N1)C(N)=O [technetium-99m labelled]
tissue uptake (C57 mice B16/F1 melanoma female, stomach; iv, 2 h, together with: NDP-MSH 10 µg co-injected): 2.24 ± 0.55 %ID/g

CN1C(=O)[C@@H](Cc2ccc(O)c(I)c2)NC(=O)CNC(=O)[C@H](Cc2ccc3ccccc3c2)NC(=O)[C@H](CCCNC(=N)N)NC(=O)[C@H]1CCCNC(=O)c1ccc(CNC(=O)CN2CCN(CC(=O)O)CCN(CC(=O)O)CCN(CC(=O)O)CC2)cc1 [lutetium-177 labelled]
tissue uptake (refers to: 177Lu radioactivity; female CB-17 SCID mice, Daudi xenograft, stomach; intravenous, 0.16 nmol per mouse, 96 h): 0.1 ± 0.01 %ID/g

N=C(N)NCCC[C@@H]1NC(=O)[C@H](CCCCNC(=O)CON=C[C@H](F)[C@@H](O)[C@H](O)[C@H](O)CO)NC(=O)[C@@H](Cc2ccc(O)cc2)NC(=O)[C@H](CC(=O)O)NC(=O)CNC1=O [fluorine-18 labelled]
tissue uptake (nude mice U-87 MG tumour, stomach; intravenous, 0.5 h): 0.17 ± 0.03 %ID/g

CCCC[C@@H]1NC(=O)[C@@H](NC(=O)[C@H](CCC(=O)O)NC(=O)CNC(=O)CN2CCN(CC(=O)O)CCN(CC(=O)O)CCN(CC(=O)O)CC2)CCCCNC(=O)C[C@@H](C(N)=O)NC(=O)[C@H](C(C)C)NC(=O)[C@@H]2CCCN2C(=O)[C@H](CCCNC(=N)N)NC(=O)CNC(=O)[C@H](Cc2c[nH]c3ccccc23)NC(=O)[C@H](CCCNC(=N)N)NC(=O)[C@@H](Cc2ccccc2)NC(=O)[C@H](Cc2c[nH]cn2)NC(=O)[C@H](CCC(=O)O)NC1=O [gallium-67 labelled]
tissue uptake (C57 mice with B16/F1 melanoma, spleen; intravenous, 0.037 MBq, 2 h): 0.09 ± 0.08 %ID/g

NC12CNCCNCC(NCc3ccc(CNC(=O)CCCC(=O)NCc4ccc(-c5nncnn5)cc4)cc3)(CNCCNC1)CNCCNC2.[64Cu+2]
tissue uptake (athymic nude mice SW1222 xenograft, blood; 4 h post injection, 24 h accumulation interval, together with: huA33-TCO pretargeting): 4 ± 0.37 %ID/g

O=C([O-])CN1CCN(CC(=O)[O-])CCN(CC(=O)NCCc2ccc3c(c2)C2C=CCC2C(c2cc4c(cc2Br)OCO4)N3)CCN(CC(=O)[O-])CC1.[111In+3] (stereo not drawn)
tissue uptake (mice with Hec50 tumour xenograft, pituitary; 4 h): 0.01 %ID/g

CCCC[C@H](NC(=O)CNC(=O)CNC(=O)CN1CCN(CC(=O)O)CCN(CC(=O)O)CC1)C(=O)N[C@H]1CC(=O)NCCCC[C@@H](C(N)=O)NC(=O)[C@H](Cc2c[nH]c3ccccc23)NC(=O)[C@H](CCCNC(=N)N)NC(=O)[C@@H](Cc2ccccc2)NC(=O)[C@H](Cc2c[nH]cn2)NC1=O [gallium-67 labelled]
tissue uptake (female C57 mice, B16/F1 melanoma, spleen; intravenous, 0.037 MBq, 4 h): 0.57 ± 0.14 %ID/g

O=C([O-])CN1CCN(CC(=O)[O-])CCN(CC(=O)[O-])CCN(CC(=O)[O-])CC1.[64Cu+2]
tissue uptake (healthy athymic nude mice, spleen; intravenous, 15 min): 0.9 %ID/g

Some of these lines once more:
CCCC[C@H](NC(=O)CNC(=O)CNC(=O)CN1CCN(CC(=O)O)CCN(CC(=O)O)CC1)C(=O)N[C@H]1CC(=O)NCCCC[C@@H](C(N)=O)NC(=O)[C@H](Cc2c[nH]c3ccccc23)NC(=O)[C@H](CCCNC(=N)N)NC(=O)[C@@H](Cc2ccccc2)NC(=O)[C@H](Cc2c[nH]cn2)NC1=O [gallium-67 labelled]
tissue uptake (female C57 mice, B16/F1 melanoma, spleen; intravenous, 0.037 MBq, 4 h): 0.57 ± 0.14 %ID/g
